{"data": "Results from different studies", "note": "Parts stem from different laboratories: compare values within a part only. Several values in a cell are separate wells, animals, samples, runs or records.", "chain of UniProt O95747 (whole entry, looked up)": "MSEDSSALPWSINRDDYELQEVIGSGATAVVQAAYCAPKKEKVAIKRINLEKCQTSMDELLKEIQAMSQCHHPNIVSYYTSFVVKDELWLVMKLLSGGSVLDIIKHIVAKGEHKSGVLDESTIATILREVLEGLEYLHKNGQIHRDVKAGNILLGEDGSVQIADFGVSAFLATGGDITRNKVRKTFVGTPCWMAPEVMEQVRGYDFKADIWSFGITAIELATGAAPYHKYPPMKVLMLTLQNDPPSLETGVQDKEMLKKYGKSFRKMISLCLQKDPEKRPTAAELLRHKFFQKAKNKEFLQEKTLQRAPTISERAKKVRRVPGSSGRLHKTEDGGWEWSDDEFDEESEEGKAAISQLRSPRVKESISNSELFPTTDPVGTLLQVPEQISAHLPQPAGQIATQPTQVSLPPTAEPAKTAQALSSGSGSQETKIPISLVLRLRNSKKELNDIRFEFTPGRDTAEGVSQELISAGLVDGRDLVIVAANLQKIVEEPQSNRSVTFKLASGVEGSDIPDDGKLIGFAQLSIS", "chain of UniProt O96017 (whole entry, looked up)": "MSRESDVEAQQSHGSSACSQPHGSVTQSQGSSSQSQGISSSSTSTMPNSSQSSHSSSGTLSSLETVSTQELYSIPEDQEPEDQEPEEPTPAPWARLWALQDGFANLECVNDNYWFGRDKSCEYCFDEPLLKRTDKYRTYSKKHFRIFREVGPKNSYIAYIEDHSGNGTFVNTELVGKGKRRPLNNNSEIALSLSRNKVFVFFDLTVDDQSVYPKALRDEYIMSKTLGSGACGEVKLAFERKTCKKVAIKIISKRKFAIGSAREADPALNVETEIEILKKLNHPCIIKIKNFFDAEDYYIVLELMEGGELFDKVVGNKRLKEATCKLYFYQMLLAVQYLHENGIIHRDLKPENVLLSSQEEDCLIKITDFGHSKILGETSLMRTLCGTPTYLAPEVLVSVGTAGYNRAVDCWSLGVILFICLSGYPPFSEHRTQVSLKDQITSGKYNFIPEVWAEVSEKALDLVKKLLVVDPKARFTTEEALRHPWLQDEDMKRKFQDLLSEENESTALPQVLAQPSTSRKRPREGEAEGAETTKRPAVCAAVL", "chain of UniProt Q13557 (whole entry, looked up)": "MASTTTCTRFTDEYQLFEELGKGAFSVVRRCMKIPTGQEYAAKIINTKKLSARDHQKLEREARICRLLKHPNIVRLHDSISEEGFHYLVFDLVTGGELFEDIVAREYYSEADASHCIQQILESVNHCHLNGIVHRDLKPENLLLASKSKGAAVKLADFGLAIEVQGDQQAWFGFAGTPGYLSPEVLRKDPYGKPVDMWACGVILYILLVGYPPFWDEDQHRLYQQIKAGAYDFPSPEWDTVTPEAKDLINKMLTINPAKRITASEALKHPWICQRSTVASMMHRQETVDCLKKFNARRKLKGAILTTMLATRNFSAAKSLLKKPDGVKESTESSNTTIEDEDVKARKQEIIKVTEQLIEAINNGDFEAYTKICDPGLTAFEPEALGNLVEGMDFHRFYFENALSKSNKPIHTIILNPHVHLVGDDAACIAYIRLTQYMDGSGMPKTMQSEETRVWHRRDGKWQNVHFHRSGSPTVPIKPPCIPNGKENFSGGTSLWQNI", "chain of UniProt P35626 (whole entry, looked up)": "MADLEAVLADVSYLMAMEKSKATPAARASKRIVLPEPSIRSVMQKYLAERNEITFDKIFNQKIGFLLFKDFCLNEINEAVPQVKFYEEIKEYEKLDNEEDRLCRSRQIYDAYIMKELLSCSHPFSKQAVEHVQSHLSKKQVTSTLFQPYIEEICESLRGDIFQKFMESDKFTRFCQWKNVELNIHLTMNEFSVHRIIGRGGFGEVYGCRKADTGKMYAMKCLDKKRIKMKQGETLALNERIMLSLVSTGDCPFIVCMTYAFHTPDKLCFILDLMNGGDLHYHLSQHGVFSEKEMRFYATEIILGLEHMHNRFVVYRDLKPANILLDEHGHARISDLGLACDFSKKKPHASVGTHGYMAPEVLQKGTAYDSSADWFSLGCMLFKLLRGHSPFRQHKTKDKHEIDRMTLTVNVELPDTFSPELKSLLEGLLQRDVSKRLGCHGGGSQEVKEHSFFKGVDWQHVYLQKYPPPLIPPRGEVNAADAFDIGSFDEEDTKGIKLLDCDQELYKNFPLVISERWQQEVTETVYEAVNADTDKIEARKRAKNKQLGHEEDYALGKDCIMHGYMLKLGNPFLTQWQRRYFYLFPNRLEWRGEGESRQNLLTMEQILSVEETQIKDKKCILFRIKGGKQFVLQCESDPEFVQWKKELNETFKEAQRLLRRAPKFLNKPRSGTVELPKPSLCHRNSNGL", "chain of UniProt Q14164 (whole entry, looked up)": "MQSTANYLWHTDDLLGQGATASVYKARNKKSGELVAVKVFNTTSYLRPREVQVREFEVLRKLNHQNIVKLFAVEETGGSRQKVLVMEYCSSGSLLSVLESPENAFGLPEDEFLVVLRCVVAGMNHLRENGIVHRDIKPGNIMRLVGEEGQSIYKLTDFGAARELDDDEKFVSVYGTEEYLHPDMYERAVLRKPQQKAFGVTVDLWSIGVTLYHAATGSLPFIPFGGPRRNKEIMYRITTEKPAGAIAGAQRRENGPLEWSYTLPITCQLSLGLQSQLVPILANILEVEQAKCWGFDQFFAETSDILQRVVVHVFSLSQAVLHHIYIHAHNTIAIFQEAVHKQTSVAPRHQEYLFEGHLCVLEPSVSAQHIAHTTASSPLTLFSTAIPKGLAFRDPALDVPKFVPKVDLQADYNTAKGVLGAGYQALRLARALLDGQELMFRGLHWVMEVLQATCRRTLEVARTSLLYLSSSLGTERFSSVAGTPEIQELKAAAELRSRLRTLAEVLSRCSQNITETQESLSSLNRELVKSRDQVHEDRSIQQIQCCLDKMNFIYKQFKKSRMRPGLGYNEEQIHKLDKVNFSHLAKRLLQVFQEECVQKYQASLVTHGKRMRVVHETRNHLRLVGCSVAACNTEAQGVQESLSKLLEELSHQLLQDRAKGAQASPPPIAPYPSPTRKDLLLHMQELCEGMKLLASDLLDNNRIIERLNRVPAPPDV", "chain of UniProt O94804 (whole entry, looked up)": "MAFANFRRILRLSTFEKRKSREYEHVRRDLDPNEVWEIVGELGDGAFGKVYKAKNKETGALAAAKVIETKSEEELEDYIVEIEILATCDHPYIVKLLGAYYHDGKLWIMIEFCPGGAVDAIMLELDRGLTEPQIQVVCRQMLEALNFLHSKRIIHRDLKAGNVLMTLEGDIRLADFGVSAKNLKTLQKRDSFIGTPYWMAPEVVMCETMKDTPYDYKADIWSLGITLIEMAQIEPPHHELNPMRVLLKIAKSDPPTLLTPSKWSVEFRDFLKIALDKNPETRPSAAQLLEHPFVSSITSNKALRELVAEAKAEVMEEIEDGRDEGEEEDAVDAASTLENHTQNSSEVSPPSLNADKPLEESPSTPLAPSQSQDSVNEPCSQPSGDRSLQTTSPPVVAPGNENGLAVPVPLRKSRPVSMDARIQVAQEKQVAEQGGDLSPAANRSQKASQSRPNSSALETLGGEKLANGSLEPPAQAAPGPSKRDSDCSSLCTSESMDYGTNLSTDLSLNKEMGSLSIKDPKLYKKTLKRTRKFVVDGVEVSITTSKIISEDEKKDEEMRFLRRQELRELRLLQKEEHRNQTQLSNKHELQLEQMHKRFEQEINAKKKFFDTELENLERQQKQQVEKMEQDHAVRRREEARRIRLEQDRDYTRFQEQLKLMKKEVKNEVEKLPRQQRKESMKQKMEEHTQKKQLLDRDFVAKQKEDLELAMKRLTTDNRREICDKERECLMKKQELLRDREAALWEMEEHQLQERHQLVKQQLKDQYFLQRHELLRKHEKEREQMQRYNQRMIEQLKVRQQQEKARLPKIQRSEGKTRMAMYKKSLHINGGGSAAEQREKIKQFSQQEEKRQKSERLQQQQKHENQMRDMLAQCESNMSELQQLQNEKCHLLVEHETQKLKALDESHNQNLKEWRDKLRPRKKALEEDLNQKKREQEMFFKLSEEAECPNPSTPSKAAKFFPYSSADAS", "chain of UniProt P51955 (whole entry, looked up)": "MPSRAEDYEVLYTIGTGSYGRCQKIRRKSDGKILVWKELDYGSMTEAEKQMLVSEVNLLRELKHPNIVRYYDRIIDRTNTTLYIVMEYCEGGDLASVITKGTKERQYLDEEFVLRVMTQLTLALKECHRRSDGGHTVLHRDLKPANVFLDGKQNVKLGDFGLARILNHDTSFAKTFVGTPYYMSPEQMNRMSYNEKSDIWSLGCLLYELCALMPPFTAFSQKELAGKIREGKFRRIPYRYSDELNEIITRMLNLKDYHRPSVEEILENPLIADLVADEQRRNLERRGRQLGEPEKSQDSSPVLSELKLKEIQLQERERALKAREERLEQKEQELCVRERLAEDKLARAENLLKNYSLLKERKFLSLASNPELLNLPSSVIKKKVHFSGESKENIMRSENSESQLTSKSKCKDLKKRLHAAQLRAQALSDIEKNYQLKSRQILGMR", "chain of UniProt P07948 (whole entry, looked up)": "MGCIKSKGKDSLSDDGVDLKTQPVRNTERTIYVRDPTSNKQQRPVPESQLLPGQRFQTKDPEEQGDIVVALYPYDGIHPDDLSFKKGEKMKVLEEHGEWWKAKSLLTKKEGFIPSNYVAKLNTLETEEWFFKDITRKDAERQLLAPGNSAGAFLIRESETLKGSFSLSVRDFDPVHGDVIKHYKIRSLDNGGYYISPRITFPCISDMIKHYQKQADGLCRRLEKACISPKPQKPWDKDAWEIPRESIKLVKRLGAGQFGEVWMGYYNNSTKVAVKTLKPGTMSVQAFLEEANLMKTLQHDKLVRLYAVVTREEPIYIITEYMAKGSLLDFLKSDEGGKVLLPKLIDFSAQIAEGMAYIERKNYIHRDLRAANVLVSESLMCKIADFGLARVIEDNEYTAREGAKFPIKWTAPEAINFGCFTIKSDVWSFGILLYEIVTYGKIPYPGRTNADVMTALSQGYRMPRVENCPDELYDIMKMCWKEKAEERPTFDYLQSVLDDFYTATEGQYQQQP"}
{"data": "Set 1", "Compound": "O=C1NCCc2[nH]c(-c3ccncc3)cc21", "cell line": "HH", "technique": "CCK-8"}
{"concentration": "1 nM", "viability": "94.5% and 102% and 98.7%"}
{"concentration": "100 nM", "viability": "87.6% and 92.6% and 89.5%"}
{"concentration": "10 nM", "viability": "98.1% and 98.6% and 102%"}
{"data": "Set 2", "SMILES": "c1ccc(-c2[nH]ncc2-c2ccnc3ccccc23)nc1", "observed": "enzyme activity", "action": "inhibitor", "concentration": "0.5 µM", "reference": "control"}
{"target": "IKBKB (Homo sapiens, UniProt O14920)", "remaining activity": "105%"}
{"target": "CAMKK2 (Homo sapiens, UniProt Q96RR4)", "remaining activity": "97%"}
{"target": "PRKACA (Homo sapiens, UniProt P17612)", "remaining activity": "107%"}
{"target": "CHEK2 (Homo sapiens, UniProt O96017)", "remaining activity": "96.6%"}
{"target": "STK10 (Homo sapiens, UniProt O94804)", "remaining activity": "90.1%"}
{"target": "CAMK2D (Homo sapiens, UniProt Q13557)", "remaining activity": "101%"}
{"target": "PRKCA (Homo sapiens, UniProt P17252)", "remaining activity": "98.5%"}
{"target": "OXSR1 (Homo sapiens, UniProt O95747)", "remaining activity": "85.3%"}
{"target": "Cyclin-dependent kinase 4, with cyclin D1 (CDK4, Homo sapiens, UniProt P11802)", "remaining activity": "101%"}
{"target": "IKBKE (Homo sapiens, UniProt Q14164)", "remaining activity": "101%"}
{"target": "DAPK2 (Homo sapiens, UniProt Q9UIK4)", "remaining activity": "102%"}
{"target": "Tyrosine-protein kinase Lyn, isoform B (LYN, Homo sapiens, UniProt P07948)", "remaining activity": "100%"}
{"target": "NEK2 (Homo sapiens, UniProt P51955)", "remaining activity": "97%"}
{"target": "DAPK1 (Homo sapiens, UniProt P53355)", "remaining activity": "111%"}
{"target": "MAP3K3 (Homo sapiens, UniProt Q99759)", "remaining activity": "79.4%"}
{"target": "MAPK9 (Homo sapiens, UniProt P45984)", "remaining activity": "98.9%"}
{"target": "Cyclin-dependent kinase 5, with p25 (CDK5, Homo sapiens, UniProt Q00535)", "remaining activity": "97.2%"}
{"target": "Protein kinase C beta type, isoform beta-I (PRKCB, Homo sapiens, UniProt P05771)", "remaining activity": "102%"}
{"target": "GRK3 (Homo sapiens, UniProt P35626)", "remaining activity": "103%"}
{"data": "Set 3", "SMILES": "CC(C)n1cnc(-c2ccc(F)cc2)c1-c1ncc(C(=O)Nc2ccc(N3CCN(C)CC3)cc2)[nH]1", "technique": "phase 2a trial", "host": "idiopathic pulmonary fibrosis patients"}
{"dose": "60 mg once daily", "setting": "grade 3 emergent event", "patients with leukocytosis [%]": 0}
{"dose": "60 mg once daily", "setting": "grade 4 emergent event", "patients with leukocytosis [%]": 0}
{"dose": "30 mg once daily", "setting": "grade 4 emergent event", "patients with leukocytosis [%]": 0}
{"dose": "all arms", "setting": "grade 5 emergent event", "patients with leukocytosis [%]": 0}
{"dose": "all arms", "setting": "grade 2 emergent event", "patients with leukocytosis [%]": 0}
{"data": "Set 4", "target": "RING finger protein unkempt homolog, zinc fingers 1-6, GST-SBP tag (UNK, Homo sapiens, UniProt Q9C0B0, residues 30-357)", "technique": "RNA Bind-n-Seq", "form": "RNA", "medium": "in vitro", "concentration": "not given", "setting": "RNA with constant flanks, human-mouse chimeric sites, ends assumed", "reference": "input RNA pool", "direction": "higher = stronger binding", "constant ends, left off below": "GGGAGUUCUACAGUCCGACGAUC … CAACAGAGGAUUGAGCAUCA", "Residues (chain)": "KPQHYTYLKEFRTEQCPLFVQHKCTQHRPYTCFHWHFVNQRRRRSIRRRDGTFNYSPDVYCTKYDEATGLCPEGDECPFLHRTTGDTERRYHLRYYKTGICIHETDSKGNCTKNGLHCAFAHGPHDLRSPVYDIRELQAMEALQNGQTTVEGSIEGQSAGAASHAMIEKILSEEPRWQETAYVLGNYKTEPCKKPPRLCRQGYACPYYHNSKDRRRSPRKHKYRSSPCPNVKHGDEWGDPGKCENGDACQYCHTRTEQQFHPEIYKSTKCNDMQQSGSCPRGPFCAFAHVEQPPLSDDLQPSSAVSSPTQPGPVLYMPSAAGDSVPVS"}
{"Sequence": "CUGAAAAACACAGAUAUCAAAGUUGUUGAUUUUGGAAGUGCAACGUAUGAUGAUGAACAUCACAGUACUUUGGUGUCUACCCGGCACUACAGAGCUCCCGAGGUCAUUUUGGCUCUAGGU", "bound/input enrichment": "0.357 ratio"}
{"Sequence": "CCUCUGCCCCGCUCUGCAGCCUGGGGACACUGGGCUGGGACCAGAAUCCAGCUUUCUUUUAAAACUCUAUAUUUUUUUGUAUCCCGUGACAUUUCAUUUUUUUUAAAUAGUGUAUUUUUU", "bound/input enrichment": "14.2 ratio"}
{"Sequence": "CGGAGCCCUCCUCUCCCACAGGCCCAAGAUAUAACCCACCAGUGCCUUUUGUCUUCCUGUCAGCUCUGUCAAUCACGCCUGUCCUCUCACGCCCACACUCCCCAGCCCCACCCCUAAGGG", "bound/input enrichment": "0.526 ratio"}
{"Sequence": "CCCCACAACCAUUUGCAGGUCUGGAACUGCACUCUCUUUUUUAAAAAACAUGUAUACAUUUUAGGGCUGUAGAUUUAUUUUCCUGGUUUUGUUUUUCAUUGCUGACUUUGAGCACAAGAA", "bound/input enrichment": "2.07 ratio"}
{"Sequence": "AAGGUGAUAACCAUGUUUGUCCAACGACAGGUAUUUUCGGAGAGCAAAGAUGAGAUUGCGUUAGUCCUCUAUGGCACAGAUGGCACUGAUAAUGCCCUUGCUGGCAAGGACCAGUAUCAG", "bound/input enrichment": "0.128 ratio"}
{"Sequence": "GGCUGCUGGUGACUGUCCUGGAGUGGCUGGAGUUCCCGCCGGAGCGCGGCCAGACUAAUUAUAGAAAAUGCCAAGUAGGAAAUUUGCUGAGGGUGAAGUGGUCAGAGGCCGAUGGCCUGG", "bound/input enrichment": "4 ratio"}
{"Sequence": "UUCAAAGAAAAGGGCAGUUCAUAAAUAACUUGGGAGACUCUGGGGGAGGGAAAUUCUGUUCUUUUGUUUAAUUUUCCCCCAAAUGAAGCCAAAGUGUGUGUUGAAGAACUGAGAAAAAAU", "bound/input enrichment": "0.161 ratio"}
{"Sequence": "GGGGAGAAACCUUACGAGUGUGUGCAGUGUGGGAAAUCCUACAGUCAAAGCUCAAAUCUCUUCAGACAUCAGAGACGACACAAUGCAGAAAAACUUCUGAAUGUUGUGAAGGUUUAAGAA", "bound/input enrichment": "0.0811 ratio"}
{"data": "Mixed results"}
{"Substance": "medroxyprogesterone", "tested on": "Sarcocystis neurona", "test": "parasite growth", "setting": "10 µM, second screen", "endpoint": "inhibition", "value": "6.7%"}
{"Substance": "O=C1CCC(N2Cc3cc(C4CCN(Cc5ccccc5)CC4)ccc3C2=O)C(=O)N1 (centres unmarked)", "test system": "rat Sprague Dawley male, plasma", "setting": "intravenous, 1.0 mg/kg", "endpoint": "Vz", "value": "23.5 L/kg and 11.8 L/kg"}
{"Substance": "NC1(c2ccc(-c3nc4c(O)ccnn4c3-c3ccccc3)cc2)CCC1", "tested on": "AKT3 (Homo sapiens, UniProt Q9Y243)", "test": "target engagement, NanoBRET", "test system": "live cells", "endpoint": "EC50", "value": "> 50 µM"}
{"Substance": "PRPF6 (Homo sapiens, UniProt O94906)", "tested on": "PRPF8 (Homo sapiens, UniProt Q6P2Q9)", "test": "cross-linking MS", "test system": "cell fractions", "setting": "with: DMTMM", "endpoint": "cross-linked residues", "value": "E99 to K480"}
{"Substance": "CCCCCCCCCCCCCCCCOP(=O)([O-])OCC[N+](C)(C)C", "tested on": "Leishmania donovani", "test": "parasite growth, imaging", "test system": "THP-1", "setting": "2 nM, intracellular, amastigote", "endpoint": "inhibition", "value": "0%"}
{"Substance": "COc1ccc(-c2c(Nc3ccccn3)[nH]c3c(C4=CCCCC4)c(-c4ccccc4)nn3c2=O)cc1", "test": "LC-MS/MS", "test system": "human, plasma", "setting": "50 mg once daily", "endpoint": "AUC(0-tau), dose-normalised", "value": "697 ng·h/mL/mg and 646 ng·h/mL/mg and 661 ng·h/mL/mg"}
{"note": "Excerpt of the above (mixed results):"}
{"Substance": "O=C1CCC(N2Cc3cc(C4CCN(Cc5ccccc5)CC4)ccc3C2=O)C(=O)N1 (centres unmarked)", "test system": "rat Sprague Dawley male, plasma", "setting": "intravenous, 1.0 mg/kg", "endpoint": "Vz", "value": "23.5 L/kg and 11.8 L/kg"}
{"Substance": "NC1(c2ccc(-c3nc4c(O)ccnn4c3-c3ccccc3)cc2)CCC1", "tested on": "AKT3 (Homo sapiens, UniProt Q9Y243)", "test": "target engagement, NanoBRET", "test system": "live cells", "endpoint": "EC50", "value": "> 50 µM"}
{"Substance": "PRPF6 (Homo sapiens, UniProt O94906)", "tested on": "PRPF8 (Homo sapiens, UniProt Q6P2Q9)", "test": "cross-linking MS", "test system": "cell fractions", "setting": "with: DMTMM", "endpoint": "cross-linked residues", "value": "E99 to K480"}
{"Substance": "CCCCCCCCCCCCCCCCOP(=O)([O-])OCC[N+](C)(C)C", "tested on": "Leishmania donovani", "test": "parasite growth, imaging", "test system": "THP-1", "setting": "2 nM, intracellular, amastigote", "endpoint": "inhibition", "value": "0%"}
{"Substance": "COc1ccc(-c2c(Nc3ccccn3)[nH]c3c(C4=CCCCC4)c(-c4ccccc4)nn3c2=O)cc1", "test": "LC-MS/MS", "test system": "human, plasma", "setting": "50 mg once daily", "endpoint": "AUC(0-tau), dose-normalised", "value": "697 ng·h/mL/mg and 646 ng·h/mL/mg and 661 ng·h/mL/mg"}
